Results from different studies.
Lines come from different studies, so protocols differ. Several values in a cell are separate wells, animals, samples, runs or records. ± gives the spread as reported.
Sequence of UniProt P08183 (whole entry, looked up): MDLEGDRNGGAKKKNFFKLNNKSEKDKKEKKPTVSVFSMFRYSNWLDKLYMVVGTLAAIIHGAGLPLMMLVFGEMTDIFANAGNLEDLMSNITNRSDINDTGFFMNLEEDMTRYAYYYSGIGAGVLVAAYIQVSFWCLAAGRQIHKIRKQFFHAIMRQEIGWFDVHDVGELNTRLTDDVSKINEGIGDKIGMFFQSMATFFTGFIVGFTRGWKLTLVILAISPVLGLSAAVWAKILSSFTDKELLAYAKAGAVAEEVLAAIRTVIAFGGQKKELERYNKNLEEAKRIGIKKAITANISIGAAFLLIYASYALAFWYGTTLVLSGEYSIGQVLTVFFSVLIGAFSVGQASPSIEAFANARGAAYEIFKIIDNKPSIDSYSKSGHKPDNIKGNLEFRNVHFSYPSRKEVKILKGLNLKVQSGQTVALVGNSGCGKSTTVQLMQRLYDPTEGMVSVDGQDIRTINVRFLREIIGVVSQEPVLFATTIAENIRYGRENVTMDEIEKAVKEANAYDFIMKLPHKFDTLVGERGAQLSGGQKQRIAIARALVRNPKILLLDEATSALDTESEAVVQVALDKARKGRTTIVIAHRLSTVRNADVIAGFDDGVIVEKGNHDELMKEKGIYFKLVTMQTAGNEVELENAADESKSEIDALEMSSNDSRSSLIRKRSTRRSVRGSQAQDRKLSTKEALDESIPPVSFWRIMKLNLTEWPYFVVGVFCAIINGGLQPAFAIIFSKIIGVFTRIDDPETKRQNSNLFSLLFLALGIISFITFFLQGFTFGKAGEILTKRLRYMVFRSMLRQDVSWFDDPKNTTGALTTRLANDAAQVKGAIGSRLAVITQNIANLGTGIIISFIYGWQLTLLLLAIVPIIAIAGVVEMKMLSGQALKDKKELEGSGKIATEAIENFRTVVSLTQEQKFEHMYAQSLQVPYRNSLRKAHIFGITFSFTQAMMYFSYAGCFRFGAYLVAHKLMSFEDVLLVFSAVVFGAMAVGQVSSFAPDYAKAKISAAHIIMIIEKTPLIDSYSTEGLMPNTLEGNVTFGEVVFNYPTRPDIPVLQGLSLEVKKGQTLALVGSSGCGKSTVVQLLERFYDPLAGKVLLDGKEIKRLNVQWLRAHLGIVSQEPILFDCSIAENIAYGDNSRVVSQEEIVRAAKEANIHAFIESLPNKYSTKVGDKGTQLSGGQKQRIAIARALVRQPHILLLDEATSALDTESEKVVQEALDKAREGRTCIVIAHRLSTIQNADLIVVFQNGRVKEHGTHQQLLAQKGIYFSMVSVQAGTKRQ
Sequence of UniProt P22309 (whole entry, looked up): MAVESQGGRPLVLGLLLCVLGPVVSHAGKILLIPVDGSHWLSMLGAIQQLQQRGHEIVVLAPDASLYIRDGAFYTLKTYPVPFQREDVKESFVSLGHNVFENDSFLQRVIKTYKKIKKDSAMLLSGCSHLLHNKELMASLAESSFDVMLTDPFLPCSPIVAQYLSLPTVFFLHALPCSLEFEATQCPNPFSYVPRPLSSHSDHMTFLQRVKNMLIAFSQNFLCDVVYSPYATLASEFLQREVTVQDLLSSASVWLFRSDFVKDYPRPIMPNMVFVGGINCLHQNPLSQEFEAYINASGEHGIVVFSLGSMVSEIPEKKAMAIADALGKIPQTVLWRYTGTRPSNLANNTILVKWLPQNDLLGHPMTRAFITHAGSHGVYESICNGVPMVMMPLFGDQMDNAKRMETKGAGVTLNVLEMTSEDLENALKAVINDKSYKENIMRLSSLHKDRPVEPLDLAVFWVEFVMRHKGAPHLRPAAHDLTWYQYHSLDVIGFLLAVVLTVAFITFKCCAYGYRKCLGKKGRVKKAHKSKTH

| SMILES | target or system | assay | test system | setting | how to read | endpoint | value |
| --- | --- | --- | --- | --- | --- | --- | --- |
| Cc1ncc2n1-c1ccc(Cl)cc1C(c1ccccc1F)=NC2 | – | – | wild-type mice, plasma | intravenous, 0.3 mg/kg, added: 3-day PB, BC 500 mg/kg and PCN 10 mg/kg | – | AUC(0-inf) | 0.042 ± 0.00585 µM·h |
| CC(C)CC(=O)OC[C@H]1O[C@@](C#N)(c2ccc3c(N)ncnn23)[C@H](O)[C@@H]1O | ABCB1 (Homo sapiens, UniProt P08183) | – | Caco-2 | 9 µM, 2 h | – | recovery A to B | 32.7% |
| OC(CCN1CC=C(c2ccc(F)cc2)CC1)c1ccc(F)c2ccccc12 (centres unmarked) | Salmonella typhimurium | genotoxicity, SOS/umu test | TA1535/pSK1002 | 0.031 mg/mL, 4 h, with S9, full range | – | induction factor | 1.3 |
| CNC1(c2ccccc2Cl)CCCCC1=O (racemic) | UGT1A1 (Homo sapiens, UniProt P22309) | enzyme activity | – | 30 µM | – | inhibition | 3% |
| O=C1c2ccccc2C(=O)c2ccccc21 | HepaRG co-cultured with HK-2 | MTT | – | 66.67 µM, 24 h | reference: untreated control | cell viability | 76.5 ± 2.22% |
| CC1(C)C(/C=C(\Cl)C(F)(F)F)C1C(=O)OC(C#N)c1cccc(Oc2ccccc2)c1 (centres unmarked) | human CYP3A5 | IVIVE from expressed enzymes | human, liver, in vivo scaled | age-specific | – | enzyme contribution to CLint | 0.05% |
| Cc1cc2c(c(O)c1O)C(=O)c1c(O)cc(O)cc1C2=O | HK-2 co-cultured with HepaRG | MTT | – | 16.67 µM, 48 h | reference: untreated control | cell viability | 81.3 ± 5.04% |
| C[C@]1(CO)Cc2ncn(-c3ccc(C#N)c(Cl)c3)c2C(=O)O1 | – | – | human | 10 mg single dose | – | subjects with drug-related orthostatic hypotension | 0% |
| O=c1ccc2ccccc2o1 | HepaRG 3D spheroids | cellular ATP, high-content screening | – | concentration not given, 24 h, 10% FBS medium | – | probability of response | 33.2% |
| CC(=O)N1CCC(C(=O)N2CCN3C(=O)c4cc(-c5ccccc5)ccc4NC(=O)C3C2)CC1 (centres unmarked) | Salmonella typhimurium | – | TA98 | 50 µg/plate, added: rat liver S9 | – | revertants per plate | 43 |
| COc1cccc(-c2n[nH]c(SCc3ccccn3)n2)c1OC | Escherichia coli | Ames test, preincubation | WP2 uvrA | 1.0 mg/plate, without S9 | – | revertant colonies per plate | 13 |
| COc1cc2c(Oc3ccc4[nH]c(C)cc4c3F)ccnc2cc1OCC1(N)CC1 | – | – | paediatric recurrent refractory sarcoma | concentration not given, whole group | – | grade 1 or 2 Hypertension | 5.9% |
| CC(C)=CC1C(C(=O)OC(C#N)c2cccc(Oc3ccccc3)c2)C1(C)C (centres unmarked) | human CYP3A5 | IVIVE from expressed enzymes | human, liver, in vivo scaled | age-specific | – | enzyme contribution to CLint | 0.24% |
| CN1CC[C@@H](c2c(O)cc(O)c3c(=O)cc(-c4ccc(C(F)(F)F)cc4Cl)oc23)[C@@H]1CO | – | measured: Anemia | B-cell malignancies or AML | oral, 100 mg, continuous dosing | – | patients with adverse event | 0% |
| CCc1ccc(CC/C=C/c2ccc3c(c2)C(=O)CC3)cc1 | – | – | Sprague-Dawley rat, female, blood | oral, 30 mg/kg/day, 14 days | – | MCH | 19.3 pg |
| Cc1cc(C(=O)NC(C)(C)COc2cccc3c2C(N)=NS(=O)(=O)N3)cc(C)n1 | Salmonella typhimurium | Ames test, initial | TA100 | 15.0 µg/plate | reference: solvent control | revertant ratio | 1.1 |
| [Cl-].[Cl-].[Pt+2].[Ru+2].c1ccc(-c2nccnc2-c2ccccn2)nc1.c1cnc2c(c1)ccc1cccnc12.c1cnc2c(c1)ccc1cccnc12 | Danio rerio | – | embryos | 45 µM, 48 h | – | hatching rate | 13 ± 6.2% |
| COc1ccc2c(c1OC)C(=O)c1c(cc(C)c(O)c1OC)C2=O | HepaRG co-cultured with HK-2 | MTT | – | 266.67 µM, 24 h | reference: untreated control | cell viability | 74.7 ± 8.89% |
| [Cl-].[Cl-].[Pt+2].[Ru+2].c1ccc(-c2nc3cc4ccccc4cc3nc2-c2ccccn2)nc1.c1cnc2c(c1)ccc1cccnc12.c1cnc2c(c1)ccc1cccnc12 | Danio rerio | – | embryos | 15 µM, 24 h | – | survival rate | 96.7 ± 2.2% |
| COc1cc2ncnc(Nc3cccc(Cl)c3)c2cc1OC | HaCaT | – | – | 0.015 µM, 60 h | – | viability | 109% and 102% and 103% |
| CO[C@H]1C[C@@H]2CC[C@@H](C)[C@@](O)(O2)C(=O)C(=O)N2CCCC[C@H]2C(=O)O[C@H]([C@H](C)C[C@@H]2CC[C@@H](OC(=O)NCCOCCOCCOCCOCCOCCOCCOCCOCCC(=O)N3CCc4cc(Cn5nc(-c6ccc7oc(N)nc7c6)c6c(N)ncnc65)ccc4C3)[C@H](OC)C2)C[C@@H](O)[C@H](C)/C=C(\C)[C@@H](O)[C@@H](OC)C(=O)[C@H](C)C[C@H](C)/C=C/C=C/C=C/1C | – | – | patients with advanced solid tumours | intravenous, 1.6 mg/3 mg weekly, grade ≥3 | – | incidence of Dysgeusia TEAE | 0% |
| O=[N+]([O-])c1ccc(N2CCN(CCC(O)c3ccc(F)cc3)CC2)c(C(F)(F)F)c1 (centres unmarked) | Salmonella typhimurium | genotoxicity, SOS/umu test | TA1535/pSK1002 | 0.063 mg/mL, 4 h, with S9, lower range | – | induction factor | 0.6 |
| CC(=O)OC[C@H]1O[C@@H](Oc2cc(O)cc3cc4oc(C)cc(=O)c4c(O)c23)[C@H](O)[C@@H](O)[C@@H]1O | HK-2 co-cultured with HepaRG | MTT | – | 266.67 µM, 24 h | reference: untreated control | cell viability | 142 ± 21.1% |

Some of these lines once more:
| SMILES | target or system | assay | test system | setting | how to read | endpoint | value |
| --- | --- | --- | --- | --- | --- | --- | --- |
| CNC1(c2ccccc2Cl)CCCCC1=O (racemic) | UGT1A1 (Homo sapiens, UniProt P22309) | enzyme activity | – | 30 µM | – | inhibition | 3% |
| OC(CCN1CC=C(c2ccc(F)cc2)CC1)c1ccc(F)c2ccccc12 (centres unmarked) | Salmonella typhimurium | genotoxicity, SOS/umu test | TA1535/pSK1002 | 0.031 mg/mL, 4 h, with S9, full range | – | induction factor | 1.3 |
| O=[N+]([O-])c1ccc(N2CCN(CCC(O)c3ccc(F)cc3)CC2)c(C(F)(F)F)c1 (centres unmarked) | Salmonella typhimurium | genotoxicity, SOS/umu test | TA1535/pSK1002 | 0.063 mg/mL, 4 h, with S9, lower range | – | induction factor | 0.6 |
